Results of several laboratories.
Every numbered part comes from another study and shows a few of its results, in no order.
UniProt Q5VT25, sequence (whole entry, looked up): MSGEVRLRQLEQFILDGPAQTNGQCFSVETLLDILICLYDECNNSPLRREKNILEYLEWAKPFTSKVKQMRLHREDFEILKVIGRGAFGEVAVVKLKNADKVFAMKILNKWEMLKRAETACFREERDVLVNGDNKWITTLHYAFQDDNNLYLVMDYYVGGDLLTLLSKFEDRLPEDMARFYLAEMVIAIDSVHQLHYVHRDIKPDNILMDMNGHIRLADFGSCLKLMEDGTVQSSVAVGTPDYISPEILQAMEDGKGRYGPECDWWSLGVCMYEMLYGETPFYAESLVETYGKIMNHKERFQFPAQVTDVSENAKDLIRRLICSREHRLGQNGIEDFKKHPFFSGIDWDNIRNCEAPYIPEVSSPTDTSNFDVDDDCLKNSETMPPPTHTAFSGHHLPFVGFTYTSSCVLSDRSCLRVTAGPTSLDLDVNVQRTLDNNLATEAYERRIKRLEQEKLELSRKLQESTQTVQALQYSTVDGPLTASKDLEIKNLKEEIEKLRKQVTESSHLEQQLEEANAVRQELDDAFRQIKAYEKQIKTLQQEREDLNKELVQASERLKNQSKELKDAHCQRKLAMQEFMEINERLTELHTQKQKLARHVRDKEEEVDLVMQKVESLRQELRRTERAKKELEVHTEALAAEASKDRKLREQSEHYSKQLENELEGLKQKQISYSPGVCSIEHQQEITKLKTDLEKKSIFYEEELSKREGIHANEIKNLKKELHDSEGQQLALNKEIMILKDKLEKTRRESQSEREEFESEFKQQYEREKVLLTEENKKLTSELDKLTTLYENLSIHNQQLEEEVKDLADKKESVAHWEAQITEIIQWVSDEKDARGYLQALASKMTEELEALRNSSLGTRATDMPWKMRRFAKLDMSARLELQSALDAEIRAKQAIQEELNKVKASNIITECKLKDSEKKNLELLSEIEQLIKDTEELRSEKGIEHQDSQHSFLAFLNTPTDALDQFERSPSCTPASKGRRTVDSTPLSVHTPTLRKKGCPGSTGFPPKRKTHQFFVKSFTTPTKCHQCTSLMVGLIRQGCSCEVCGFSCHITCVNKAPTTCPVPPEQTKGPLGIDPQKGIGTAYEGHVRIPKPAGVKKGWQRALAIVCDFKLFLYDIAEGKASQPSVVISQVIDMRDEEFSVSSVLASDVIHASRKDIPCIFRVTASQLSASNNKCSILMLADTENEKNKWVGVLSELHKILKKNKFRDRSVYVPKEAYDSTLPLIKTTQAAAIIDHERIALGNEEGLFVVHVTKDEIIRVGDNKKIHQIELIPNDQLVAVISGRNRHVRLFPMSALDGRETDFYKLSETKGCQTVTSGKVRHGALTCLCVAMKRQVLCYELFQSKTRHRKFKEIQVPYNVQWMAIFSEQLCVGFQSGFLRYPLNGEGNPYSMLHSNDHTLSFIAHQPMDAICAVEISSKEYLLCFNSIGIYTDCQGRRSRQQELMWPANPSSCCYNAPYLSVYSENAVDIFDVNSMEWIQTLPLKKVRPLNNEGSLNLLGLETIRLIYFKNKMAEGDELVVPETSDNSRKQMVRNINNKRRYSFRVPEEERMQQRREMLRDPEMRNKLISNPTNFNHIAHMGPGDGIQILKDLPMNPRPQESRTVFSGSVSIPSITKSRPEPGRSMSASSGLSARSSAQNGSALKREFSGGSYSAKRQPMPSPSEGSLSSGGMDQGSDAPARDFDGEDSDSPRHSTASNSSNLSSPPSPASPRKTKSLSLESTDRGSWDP
UniProt O00141, sequence (whole entry, looked up): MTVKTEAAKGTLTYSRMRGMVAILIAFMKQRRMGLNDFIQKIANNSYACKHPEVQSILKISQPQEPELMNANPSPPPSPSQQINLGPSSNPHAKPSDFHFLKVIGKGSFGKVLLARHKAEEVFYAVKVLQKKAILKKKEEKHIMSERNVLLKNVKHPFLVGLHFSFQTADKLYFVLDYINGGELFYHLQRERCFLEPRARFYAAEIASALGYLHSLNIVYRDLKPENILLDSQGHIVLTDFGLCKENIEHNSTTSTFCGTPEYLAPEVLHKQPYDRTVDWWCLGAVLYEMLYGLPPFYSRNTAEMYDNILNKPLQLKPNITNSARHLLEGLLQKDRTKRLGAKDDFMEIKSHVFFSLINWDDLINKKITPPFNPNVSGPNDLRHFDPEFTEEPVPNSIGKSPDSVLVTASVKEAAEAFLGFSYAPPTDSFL
UniProt P50613, sequence (whole entry, looked up): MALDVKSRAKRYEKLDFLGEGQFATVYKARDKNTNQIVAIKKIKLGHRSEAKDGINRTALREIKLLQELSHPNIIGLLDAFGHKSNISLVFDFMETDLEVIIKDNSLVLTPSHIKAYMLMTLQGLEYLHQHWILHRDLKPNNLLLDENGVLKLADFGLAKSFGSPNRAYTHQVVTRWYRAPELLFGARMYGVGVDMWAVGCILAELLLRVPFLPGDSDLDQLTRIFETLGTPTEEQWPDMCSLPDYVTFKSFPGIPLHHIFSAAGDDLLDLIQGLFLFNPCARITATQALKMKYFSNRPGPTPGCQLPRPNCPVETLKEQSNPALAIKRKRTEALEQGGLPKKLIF
UniProt Q12866, sequence (whole entry, looked up): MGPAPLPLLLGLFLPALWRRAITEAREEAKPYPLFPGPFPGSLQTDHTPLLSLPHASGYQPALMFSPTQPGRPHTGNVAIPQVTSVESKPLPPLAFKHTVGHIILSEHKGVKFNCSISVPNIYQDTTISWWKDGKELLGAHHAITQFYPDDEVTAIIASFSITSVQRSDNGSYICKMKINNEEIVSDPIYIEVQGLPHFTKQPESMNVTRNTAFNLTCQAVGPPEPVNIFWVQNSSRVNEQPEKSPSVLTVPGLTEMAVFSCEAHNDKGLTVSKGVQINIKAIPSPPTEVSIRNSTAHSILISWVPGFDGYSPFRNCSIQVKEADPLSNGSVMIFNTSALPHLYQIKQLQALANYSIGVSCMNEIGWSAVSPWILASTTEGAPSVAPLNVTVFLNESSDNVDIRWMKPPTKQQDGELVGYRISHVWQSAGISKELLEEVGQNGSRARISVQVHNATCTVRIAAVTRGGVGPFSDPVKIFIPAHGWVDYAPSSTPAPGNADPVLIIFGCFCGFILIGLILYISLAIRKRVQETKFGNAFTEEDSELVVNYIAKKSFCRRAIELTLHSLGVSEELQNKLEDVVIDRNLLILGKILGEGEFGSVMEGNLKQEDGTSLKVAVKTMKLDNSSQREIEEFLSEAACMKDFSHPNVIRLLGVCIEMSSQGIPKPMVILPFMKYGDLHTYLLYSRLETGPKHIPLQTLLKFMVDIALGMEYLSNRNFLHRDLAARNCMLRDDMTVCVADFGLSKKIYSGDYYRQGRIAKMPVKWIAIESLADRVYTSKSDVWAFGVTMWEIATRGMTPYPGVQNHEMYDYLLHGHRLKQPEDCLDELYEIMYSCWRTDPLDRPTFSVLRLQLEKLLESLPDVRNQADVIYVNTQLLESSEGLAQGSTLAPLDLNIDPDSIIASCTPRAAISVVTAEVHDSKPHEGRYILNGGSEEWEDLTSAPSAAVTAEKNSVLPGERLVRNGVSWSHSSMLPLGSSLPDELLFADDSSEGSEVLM
UniProt P25098, sequence (whole entry, looked up): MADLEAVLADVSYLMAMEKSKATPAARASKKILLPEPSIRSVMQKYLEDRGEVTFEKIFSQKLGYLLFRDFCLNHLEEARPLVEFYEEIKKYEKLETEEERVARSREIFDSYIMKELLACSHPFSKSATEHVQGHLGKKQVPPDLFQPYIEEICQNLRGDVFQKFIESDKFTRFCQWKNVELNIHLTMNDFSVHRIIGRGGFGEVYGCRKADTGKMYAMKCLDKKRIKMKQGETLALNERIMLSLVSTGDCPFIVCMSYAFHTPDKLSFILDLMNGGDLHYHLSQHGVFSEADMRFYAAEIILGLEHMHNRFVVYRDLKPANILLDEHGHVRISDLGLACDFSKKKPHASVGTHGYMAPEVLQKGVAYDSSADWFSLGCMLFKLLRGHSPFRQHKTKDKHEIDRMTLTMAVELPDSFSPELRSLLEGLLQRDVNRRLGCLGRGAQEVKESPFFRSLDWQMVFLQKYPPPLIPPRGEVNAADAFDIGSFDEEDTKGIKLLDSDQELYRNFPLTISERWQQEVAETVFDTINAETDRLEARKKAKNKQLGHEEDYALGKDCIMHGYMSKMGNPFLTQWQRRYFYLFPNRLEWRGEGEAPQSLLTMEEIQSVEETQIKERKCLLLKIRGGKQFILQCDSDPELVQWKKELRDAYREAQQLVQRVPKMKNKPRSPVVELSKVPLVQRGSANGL

Sample 1
Cell line: HaCaT
Concentration: 100 µM
Time: 36 h
Endpoint: viability
SMILES = CCCNS(=O)(=O)Nc1ncnc(OCCOc2ncc(Br)cn2)c1-c1ccc(Br)cc1; result = 90.1%
SMILES = CN(C)CCC=C1c2ccccc2C=Cc2ccccc21; result = 5.37%
SMILES = CC1=C(/C=C/C(C)=C/C=C/C(C)=C\C(=O)O)C(C)(C)CCC1; result = 89.1%
SMILES = COc1ccc(-c2coc3cc(O)ccc3c2=O)cc1; result = 84.8%
SMILES = CC(COc1ccccc1)NC(C)C(O)c1ccc(O)cc1 (stereo not shown); result = 98.9%
SMILES = CC(C)[C@H](N)C(=O)OCCOCn1cnc2c(=O)[nH]c(N)nc21; result = 91.2%
SMILES = NC(=O)c1ncn([C@@H]2O[C@H](CO)[C@@H](O)[C@H]2O)n1; result = 70.4%

Sample 2
Target: Dual specificity mitogen-activated protein kinase kinase 6 (MAP2K6, Homo sapiens, UniProt P52564)
UniProt P52564, sequence (whole entry, looked up): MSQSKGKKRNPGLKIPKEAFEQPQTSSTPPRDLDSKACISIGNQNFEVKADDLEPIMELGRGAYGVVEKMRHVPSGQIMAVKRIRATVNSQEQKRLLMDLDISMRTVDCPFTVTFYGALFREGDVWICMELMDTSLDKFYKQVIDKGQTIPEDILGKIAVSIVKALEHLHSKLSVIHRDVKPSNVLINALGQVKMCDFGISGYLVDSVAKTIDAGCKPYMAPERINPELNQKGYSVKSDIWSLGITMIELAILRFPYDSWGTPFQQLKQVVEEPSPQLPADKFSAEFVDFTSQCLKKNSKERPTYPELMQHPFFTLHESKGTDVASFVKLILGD
Read-out: enzyme activity
Action: inhibitor
Concentration: 0.5 µM
Reference: control
Endpoint: remaining activity
Compound = CCOC(=O)c1c(C)[nH]c(/C=C2\C(=O)Nc3ccccc32)c1C; result = 96.5%
Compound = CNC(=O)c1cc(Oc2ccc(NC(=O)Nc3ccc(Cl)c(C(F)(F)F)c3)cc2)ccn1; result = 96.9%
Compound = O=C(O)c1ccc2c3c1cccc3c(=O)n1c3ccccc3nc21; result = 103%
Compound = CO[C@H]1C[C@@H]2CC[C@@H](C)[C@@](O)(O2)C(=O)C(=O)N2CCCC[C@H]2C(=O)O[C@H]([C@H](C)C[C@@H]2CC[C@@H](O)[C@H](OC)C2)CC(=O)[C@H](C)/C=C(\C)[C@@H](O)[C@@H](OC)C(=O)[C@H](C)C[C@H](C)/C=C/C=C/C=C/1C; result = 107%
Compound = Nc1[nH]nc2nc3ccccc3nc12; result = 100%
Compound = Cc1cccc(-c2[nH]c(C(C)(C)C)nc2-c2ccc3c(c2)OCO3)n1; result = 105%
Compound = Cn1sc(=O)n(Cc2ccccc2)c1=O; result = 94.9%
Compound = COc1cc2nccc(Oc3ccc(NC(=S)NC(=O)c4ccccc4C)cc3)c2cc1OC; result = 94.9%
Compound = N#CC(C#N)=C(N)/C(C#N)=C/c1ccc(O)cc1; result = 94%
Compound = O=C(CCCc1ccc(-c2ccccc2F)cc1)Nc1ccc(O)cc1; result = 97.5%
Compound = O=C1NC(=O)C(c2cn(CCCO)c3ncccc23)=C1c1cnccn1; result = 91.1%
Compound = O=C(Nc1cccc(Nc2cc(Nc3cccc(C(F)(F)F)c3)ncn2)c1)C1CC1; result = 108%
Compound = CC(C)[C@H](CO)Nc1nc(Nc2cc(N)cc(Cl)c2)c2ncn(C(C)C)c2n1; result = 92.5%
Compound = O=C1NC(=O)C(c2cn(CCCn3ccnc3)c3ccccc23)=C1Nc1ccccc1; result = 103%
Compound = OCC(O)CCON=C1C(c2c(O)[nH]c3ccccc23)=Nc2ccccc21 (stereo not shown); result = 79.7%

Sample 3
SMILES: NS(=O)(=O)c1cc(NC(=O)C2(c3ccccc3Cl)CC2)ccc1Oc1cccc(Cl)c1
Concentration: 1 µM
Endpoint: remaining binding
target = CDK7 (Homo sapiens, UniProt P50613); read-out = cell-free assay; method = competition with immobilised ligand; result = 82%
target = MERTK (Homo sapiens, UniProt Q12866); read-out = cell-free assay; method = competition with immobilised ligand; result = 70%
target = CDC42BPA (Homo sapiens, UniProt Q5VT25); read-out = cell-free assay; method = competition with immobilised ligand; result = 95%
target = GRK2 (Homo sapiens, UniProt P25098); read-out = cell-free assay; method = competition with immobilised ligand; result = 100%
target = PI4KB (Homo sapiens, UniProt Q9UBF8); read-out = cell-free assay; method = competition with immobilised ligand; result = 75%
target = SGK1 (Homo sapiens, UniProt O00141); read-out = cell-free assay; method = competition with immobilised ligand; result = 100%
target = PIK3CA (Homo sapiens, UniProt P42336, E545K); read-out = cell-free assay; method = competition with immobilised ligand; result = 96%
target = Tyrosine-protein kinase ABL1, phosphorylated (ABL1, Homo sapiens, UniProt P00519, F317I); read-out = binding; result = 90%

Further values, each from its own experiment
Compound = CC(C)n1cnc(-c2ccc(F)cc2)c1-c1ncc(C(=O)Nc2ccc(N3CCN(C)CC3)cc2)[nH]1; species = IPF patients; dose = 60 mg once daily; setting = adverse event; endpoint = cardiac failure incidence; result = 0%

Repeated from above (sample 1):
SMILES = CCCNS(=O)(=O)Nc1ncnc(OCCOc2ncc(Br)cn2)c1-c1ccc(Br)cc1; result = 90.1%
SMILES = CN(C)CCC=C1c2ccccc2C=Cc2ccccc21; result = 5.37%
SMILES = CC1=C(/C=C/C(C)=C/C=C/C(C)=C\C(=O)O)C(C)(C)CCC1; result = 89.1%
SMILES = COc1ccc(-c2coc3cc(O)ccc3c2=O)cc1; result = 84.8%
